Published values pooled from the literature.
A part holds a random share of what one study measured. Positions count from the first letter of the parent shown.
Sequence of UniProt P51956 (whole entry, looked up): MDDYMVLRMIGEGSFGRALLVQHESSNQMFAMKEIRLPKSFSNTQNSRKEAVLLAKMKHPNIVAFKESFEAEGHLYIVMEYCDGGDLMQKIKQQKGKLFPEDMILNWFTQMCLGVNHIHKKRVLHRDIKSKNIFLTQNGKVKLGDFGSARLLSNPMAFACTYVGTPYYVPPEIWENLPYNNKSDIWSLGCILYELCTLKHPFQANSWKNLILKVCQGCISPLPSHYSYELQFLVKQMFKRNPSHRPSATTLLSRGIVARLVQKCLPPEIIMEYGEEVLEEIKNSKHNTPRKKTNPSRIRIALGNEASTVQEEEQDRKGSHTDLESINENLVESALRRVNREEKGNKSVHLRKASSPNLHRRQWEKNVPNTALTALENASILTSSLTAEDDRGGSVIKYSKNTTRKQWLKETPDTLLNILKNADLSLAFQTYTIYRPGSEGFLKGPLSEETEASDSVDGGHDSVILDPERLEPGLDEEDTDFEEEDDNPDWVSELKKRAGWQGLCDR
Sequence of UniProt P42681 (whole entry, looked up): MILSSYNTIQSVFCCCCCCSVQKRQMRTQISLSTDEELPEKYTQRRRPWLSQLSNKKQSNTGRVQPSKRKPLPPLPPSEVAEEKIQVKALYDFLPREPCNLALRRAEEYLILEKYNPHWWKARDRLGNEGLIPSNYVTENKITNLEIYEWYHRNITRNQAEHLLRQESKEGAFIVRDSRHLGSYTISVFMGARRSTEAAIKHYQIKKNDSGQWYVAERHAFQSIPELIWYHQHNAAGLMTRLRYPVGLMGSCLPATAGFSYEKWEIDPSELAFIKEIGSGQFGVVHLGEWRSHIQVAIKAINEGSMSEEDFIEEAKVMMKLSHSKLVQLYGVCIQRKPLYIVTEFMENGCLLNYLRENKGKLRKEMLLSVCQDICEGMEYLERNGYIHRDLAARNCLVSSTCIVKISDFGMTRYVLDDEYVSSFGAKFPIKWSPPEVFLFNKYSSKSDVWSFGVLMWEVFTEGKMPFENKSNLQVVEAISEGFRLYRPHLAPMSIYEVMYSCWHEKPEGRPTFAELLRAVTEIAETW
Sequence of UniProt P50750 (whole entry, looked up): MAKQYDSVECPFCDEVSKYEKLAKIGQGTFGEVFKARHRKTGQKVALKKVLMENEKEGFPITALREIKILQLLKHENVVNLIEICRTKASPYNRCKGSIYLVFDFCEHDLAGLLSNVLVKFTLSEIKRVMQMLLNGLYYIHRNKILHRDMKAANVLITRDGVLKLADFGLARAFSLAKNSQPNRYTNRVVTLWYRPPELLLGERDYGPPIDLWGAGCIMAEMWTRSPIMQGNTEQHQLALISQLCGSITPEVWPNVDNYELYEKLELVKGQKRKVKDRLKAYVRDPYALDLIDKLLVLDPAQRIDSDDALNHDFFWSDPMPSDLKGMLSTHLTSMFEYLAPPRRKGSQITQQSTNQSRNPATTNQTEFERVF
Sequence of UniProt Q7KZI7 (whole entry, looked up): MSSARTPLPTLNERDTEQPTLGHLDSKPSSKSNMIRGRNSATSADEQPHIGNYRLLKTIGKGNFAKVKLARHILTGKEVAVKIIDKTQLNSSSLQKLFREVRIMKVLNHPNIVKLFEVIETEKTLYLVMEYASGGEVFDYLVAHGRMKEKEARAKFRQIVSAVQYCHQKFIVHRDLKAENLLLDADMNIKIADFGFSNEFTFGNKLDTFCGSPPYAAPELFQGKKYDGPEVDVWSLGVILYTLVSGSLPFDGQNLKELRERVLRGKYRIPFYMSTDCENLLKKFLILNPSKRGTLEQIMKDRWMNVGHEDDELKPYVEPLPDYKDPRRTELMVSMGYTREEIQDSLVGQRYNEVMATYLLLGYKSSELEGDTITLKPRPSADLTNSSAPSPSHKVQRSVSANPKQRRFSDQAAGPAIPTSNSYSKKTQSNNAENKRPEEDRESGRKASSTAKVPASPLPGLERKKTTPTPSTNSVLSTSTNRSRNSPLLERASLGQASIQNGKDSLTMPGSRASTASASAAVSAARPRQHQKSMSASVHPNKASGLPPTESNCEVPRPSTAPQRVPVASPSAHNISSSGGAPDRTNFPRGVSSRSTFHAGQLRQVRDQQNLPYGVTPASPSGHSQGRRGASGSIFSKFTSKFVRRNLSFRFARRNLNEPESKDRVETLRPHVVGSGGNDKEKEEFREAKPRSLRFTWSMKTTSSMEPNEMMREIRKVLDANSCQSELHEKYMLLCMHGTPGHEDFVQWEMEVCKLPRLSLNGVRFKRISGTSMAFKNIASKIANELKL
Sequence of UniProt P35968 (whole entry, looked up): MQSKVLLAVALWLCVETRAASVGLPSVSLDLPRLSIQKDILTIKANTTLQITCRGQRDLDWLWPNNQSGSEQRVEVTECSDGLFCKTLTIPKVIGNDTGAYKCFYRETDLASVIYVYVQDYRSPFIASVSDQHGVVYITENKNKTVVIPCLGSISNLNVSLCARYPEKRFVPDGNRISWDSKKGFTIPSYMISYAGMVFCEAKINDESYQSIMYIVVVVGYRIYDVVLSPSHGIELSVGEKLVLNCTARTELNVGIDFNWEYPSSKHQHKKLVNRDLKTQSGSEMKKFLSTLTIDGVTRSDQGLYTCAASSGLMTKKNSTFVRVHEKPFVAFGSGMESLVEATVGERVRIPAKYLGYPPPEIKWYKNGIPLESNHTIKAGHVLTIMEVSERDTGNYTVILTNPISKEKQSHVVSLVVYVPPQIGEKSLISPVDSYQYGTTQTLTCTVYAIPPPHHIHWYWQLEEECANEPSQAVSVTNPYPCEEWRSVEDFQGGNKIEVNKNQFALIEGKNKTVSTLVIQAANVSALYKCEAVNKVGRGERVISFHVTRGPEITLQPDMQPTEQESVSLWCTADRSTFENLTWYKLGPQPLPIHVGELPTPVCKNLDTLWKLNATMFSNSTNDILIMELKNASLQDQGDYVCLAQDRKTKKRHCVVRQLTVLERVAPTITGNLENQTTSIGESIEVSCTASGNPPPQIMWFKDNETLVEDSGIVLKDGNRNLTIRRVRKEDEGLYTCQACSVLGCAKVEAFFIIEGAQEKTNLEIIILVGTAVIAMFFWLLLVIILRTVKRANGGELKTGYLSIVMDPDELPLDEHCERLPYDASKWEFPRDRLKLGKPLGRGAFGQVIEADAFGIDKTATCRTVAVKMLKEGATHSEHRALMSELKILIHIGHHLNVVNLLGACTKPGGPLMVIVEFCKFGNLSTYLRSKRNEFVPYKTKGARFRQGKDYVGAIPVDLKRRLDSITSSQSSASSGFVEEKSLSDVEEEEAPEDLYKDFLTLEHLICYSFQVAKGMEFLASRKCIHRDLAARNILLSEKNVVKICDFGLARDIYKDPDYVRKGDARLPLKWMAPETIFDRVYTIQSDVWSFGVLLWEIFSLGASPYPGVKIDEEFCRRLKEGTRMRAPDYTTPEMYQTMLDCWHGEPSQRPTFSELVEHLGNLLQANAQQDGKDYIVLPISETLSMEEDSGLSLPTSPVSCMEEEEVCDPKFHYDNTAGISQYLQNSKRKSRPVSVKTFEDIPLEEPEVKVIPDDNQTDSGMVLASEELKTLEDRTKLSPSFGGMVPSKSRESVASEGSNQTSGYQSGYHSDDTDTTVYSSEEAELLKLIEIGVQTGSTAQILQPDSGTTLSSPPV
Sequence of UniProt Q86UE8 (whole entry, looked up): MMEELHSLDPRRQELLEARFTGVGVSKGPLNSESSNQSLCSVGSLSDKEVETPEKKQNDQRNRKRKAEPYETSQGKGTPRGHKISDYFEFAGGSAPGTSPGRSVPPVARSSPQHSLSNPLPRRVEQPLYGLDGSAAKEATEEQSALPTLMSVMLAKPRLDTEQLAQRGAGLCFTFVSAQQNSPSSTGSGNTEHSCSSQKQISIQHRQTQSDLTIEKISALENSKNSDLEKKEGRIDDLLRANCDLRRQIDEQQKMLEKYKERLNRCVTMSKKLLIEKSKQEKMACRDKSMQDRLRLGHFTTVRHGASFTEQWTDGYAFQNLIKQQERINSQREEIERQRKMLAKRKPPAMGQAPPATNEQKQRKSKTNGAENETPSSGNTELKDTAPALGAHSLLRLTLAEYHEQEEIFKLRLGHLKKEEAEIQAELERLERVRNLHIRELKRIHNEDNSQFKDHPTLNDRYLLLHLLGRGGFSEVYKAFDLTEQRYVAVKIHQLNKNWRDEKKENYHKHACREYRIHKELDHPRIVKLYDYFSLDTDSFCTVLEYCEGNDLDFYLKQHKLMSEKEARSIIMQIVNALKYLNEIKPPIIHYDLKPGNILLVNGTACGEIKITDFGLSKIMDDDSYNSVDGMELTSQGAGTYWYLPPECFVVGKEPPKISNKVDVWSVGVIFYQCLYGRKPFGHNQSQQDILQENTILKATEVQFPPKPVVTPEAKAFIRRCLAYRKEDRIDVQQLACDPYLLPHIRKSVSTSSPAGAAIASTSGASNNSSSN
Sequence of UniProt P0C264 (whole entry, looked up): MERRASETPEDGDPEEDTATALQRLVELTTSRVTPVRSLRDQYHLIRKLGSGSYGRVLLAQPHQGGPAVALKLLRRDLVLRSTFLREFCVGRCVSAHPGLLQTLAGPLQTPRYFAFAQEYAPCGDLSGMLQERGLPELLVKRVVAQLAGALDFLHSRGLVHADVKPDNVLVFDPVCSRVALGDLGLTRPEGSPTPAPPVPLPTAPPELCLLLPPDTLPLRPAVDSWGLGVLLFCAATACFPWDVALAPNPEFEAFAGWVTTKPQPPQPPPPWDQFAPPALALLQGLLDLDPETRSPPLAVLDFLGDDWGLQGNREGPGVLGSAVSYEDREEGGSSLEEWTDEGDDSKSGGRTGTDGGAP

Sample 1 — target: CREB3L3, bZIP domain (human); technique: DHFR protein complementation; medium: yeast; baseline: wild-type JUN-FOS pair; direction: higher = stronger binding
Notes: single substitutions, most at no-binding floor
Parent: JUN, bZIP domain (human); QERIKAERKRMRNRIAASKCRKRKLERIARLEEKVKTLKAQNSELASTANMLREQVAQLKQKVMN; partner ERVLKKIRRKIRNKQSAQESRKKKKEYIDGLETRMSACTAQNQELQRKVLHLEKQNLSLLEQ
Change | binding fitness
A49G | -1.46 natural log
K36A | -1.41 natural log
E54R | -1.49 natural log
M51I | -1.65 natural log
R30P | -1.46 natural log
L45G | -1.52 natural log
K34S | -1.5 natural log
K39M | -1.25 natural log

Sample 2 — read-out: enzyme activity; mode: inhibitor; tested at: 0.5 µM; baseline: control
SMILES: O=c1c(-c2ccc(F)cc2)c(-c2ccncc2)[nH]n1-c1ccc(Cl)cc1
target | remaining activity [%]
Cyclin-dependent kinase 9, with cyclin K (CDK9, Homo sapiens, UniProt P50750) | 93.4
MARK2 (Homo sapiens, UniProt Q7KZI7) | 88.8
MAPK1 (Homo sapiens, UniProt P28482) | 77.3
PAK3 (Homo sapiens, UniProt O75914) | 98.3
KDR (Homo sapiens, UniProt P35968) | 90.6
Myosin-IIIb (MYO3B, Homo sapiens, UniProt Q8WXR4) | 90.7
MET (Homo sapiens, UniProt P08581) | 101
GRK4 (Homo sapiens, UniProt P32298) | 97.9
MARK4 (Homo sapiens, UniProt Q96L34) | 80
NEK3 (Homo sapiens, UniProt P51956) | 100
TXK (Homo sapiens, UniProt P42681) | 94.4
TLK2 (Homo sapiens, UniProt Q86UE8) | 109
MAP2K1 (Homo sapiens, UniProt Q02750) | 70.1
RPS6KA4 (Homo sapiens, UniProt O75676) | 103

Sample 3 — read-out: cell-free assay; technique: competition with immobilised ligand; tested at: 1 µM
SMILES: CCOCCn1cc(C(=O)Nc2ccc(-n3nc(-c4cccnc4)cc3C(F)(F)F)cn2)ccc1=O
target | remaining binding
MAP2K7 (Homo sapiens, UniProt O14733) | 85%
MET (Homo sapiens, UniProt P08581) | 95%
SGK3 (Homo sapiens, UniProt Q96BR1) | 65%
EGFR (Homo sapiens, UniProt P00533, G719S) | 100%
CDKL5 (Homo sapiens, UniProt O76039) | 90%
RIPK1 (Homo sapiens, UniProt Q13546) | 88%
SBK3 (Homo sapiens, UniProt P0C264) | 78%
NEK11 (Homo sapiens, UniProt Q8NG66) | 96%
PRKG1 (Homo sapiens, UniProt Q13976) | 98%
PRKCD (Homo sapiens, UniProt Q05655) | 100%
HIPK1 (Homo sapiens, UniProt Q86Z02) | 90%
PIKFYVE (Homo sapiens, UniProt Q9Y2I7) | 97%

Sample 4 — technique: DHFR PCA, dose-response; medium: yeast; notes: Hill fit, mean, not affinity; added: (+)-ABA, dose series; direction: lower = more sensitive
Target: ABI1, truncated, D143A, DHFR fusion (Arabidopsis thaliana, UniProt P49597)
Parent: PYL1, truncated, DHFR fusion (Arabidopsis thaliana, UniProt Q8VZS8); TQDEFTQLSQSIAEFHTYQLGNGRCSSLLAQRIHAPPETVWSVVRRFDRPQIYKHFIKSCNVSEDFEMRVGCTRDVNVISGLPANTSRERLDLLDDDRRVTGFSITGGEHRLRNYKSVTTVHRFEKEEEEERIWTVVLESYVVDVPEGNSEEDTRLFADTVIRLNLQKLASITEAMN
Change | ABA EC50 [µM]
T39A | 2.54
K58C | 18.9
Q31Y | 33.9
T154M | 17.1
R24V | 2.76
E131C | 3.11
A30Y | 2.22
D96K | 493

Repeated from above (sample 2):
target | remaining activity [%]
TXK (Homo sapiens, UniProt P42681) | 94.4
TLK2 (Homo sapiens, UniProt Q86UE8) | 109
MAP2K1 (Homo sapiens, UniProt Q02750) | 70.1
RPS6KA4 (Homo sapiens, UniProt O75676) | 103
